Experimental data pooled from the literature.
Lines come from different studies, so protocols differ.
TDP1: Tyrosyl-DNA phosphodiesterase 1 (TDP1, Homo sapiens, UniProt Q9NUW8)
Sequence of UniProt Q9NUW8 (whole entry, looked up): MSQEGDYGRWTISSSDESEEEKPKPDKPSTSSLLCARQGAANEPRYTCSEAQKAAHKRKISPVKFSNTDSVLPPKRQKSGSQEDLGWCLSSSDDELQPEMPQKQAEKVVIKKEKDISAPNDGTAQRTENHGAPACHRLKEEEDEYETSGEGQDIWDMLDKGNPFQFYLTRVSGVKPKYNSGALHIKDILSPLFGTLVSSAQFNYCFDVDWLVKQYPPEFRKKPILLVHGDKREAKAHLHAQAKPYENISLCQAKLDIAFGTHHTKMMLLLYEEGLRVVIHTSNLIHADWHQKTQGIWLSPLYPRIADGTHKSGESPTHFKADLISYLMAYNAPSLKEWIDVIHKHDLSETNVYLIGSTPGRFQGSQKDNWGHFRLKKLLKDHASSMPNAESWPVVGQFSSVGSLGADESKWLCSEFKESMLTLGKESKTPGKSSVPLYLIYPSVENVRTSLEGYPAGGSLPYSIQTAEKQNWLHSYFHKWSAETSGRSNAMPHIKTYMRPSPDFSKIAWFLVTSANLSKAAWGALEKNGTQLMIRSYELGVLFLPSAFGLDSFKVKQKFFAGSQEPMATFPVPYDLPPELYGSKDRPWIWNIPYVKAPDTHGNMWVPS
Uncharacterized protein: Uncharacterized protein (Trypanosoma brucei brucei, UniProt Q386Q8)
Sequence of UniProt O09047 (whole entry, looked up): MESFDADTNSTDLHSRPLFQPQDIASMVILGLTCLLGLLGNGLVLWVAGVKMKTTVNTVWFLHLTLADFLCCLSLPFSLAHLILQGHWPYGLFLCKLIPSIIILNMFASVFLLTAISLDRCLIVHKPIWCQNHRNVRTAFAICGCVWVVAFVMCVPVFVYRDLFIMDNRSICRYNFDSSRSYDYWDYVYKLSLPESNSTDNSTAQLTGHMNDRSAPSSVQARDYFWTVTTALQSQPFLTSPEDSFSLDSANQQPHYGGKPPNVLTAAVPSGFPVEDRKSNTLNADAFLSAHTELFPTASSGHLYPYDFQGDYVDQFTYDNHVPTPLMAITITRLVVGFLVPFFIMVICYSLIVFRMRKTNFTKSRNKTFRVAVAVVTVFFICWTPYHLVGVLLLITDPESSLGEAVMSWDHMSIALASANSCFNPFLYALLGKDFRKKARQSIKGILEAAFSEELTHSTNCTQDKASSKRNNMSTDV
Sequence of UniProt Q06180 (whole entry, looked up): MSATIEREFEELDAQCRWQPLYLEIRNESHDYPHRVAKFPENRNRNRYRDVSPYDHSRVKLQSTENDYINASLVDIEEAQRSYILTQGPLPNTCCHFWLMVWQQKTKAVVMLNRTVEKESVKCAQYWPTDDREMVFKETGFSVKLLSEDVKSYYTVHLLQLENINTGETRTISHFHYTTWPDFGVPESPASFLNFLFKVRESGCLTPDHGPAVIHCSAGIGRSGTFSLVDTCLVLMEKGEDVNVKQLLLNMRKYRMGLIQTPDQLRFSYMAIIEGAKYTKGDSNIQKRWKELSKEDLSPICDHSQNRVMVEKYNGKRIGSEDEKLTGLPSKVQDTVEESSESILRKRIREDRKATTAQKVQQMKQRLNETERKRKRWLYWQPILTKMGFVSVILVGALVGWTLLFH
Sequence of UniProt P07550 (whole entry, looked up): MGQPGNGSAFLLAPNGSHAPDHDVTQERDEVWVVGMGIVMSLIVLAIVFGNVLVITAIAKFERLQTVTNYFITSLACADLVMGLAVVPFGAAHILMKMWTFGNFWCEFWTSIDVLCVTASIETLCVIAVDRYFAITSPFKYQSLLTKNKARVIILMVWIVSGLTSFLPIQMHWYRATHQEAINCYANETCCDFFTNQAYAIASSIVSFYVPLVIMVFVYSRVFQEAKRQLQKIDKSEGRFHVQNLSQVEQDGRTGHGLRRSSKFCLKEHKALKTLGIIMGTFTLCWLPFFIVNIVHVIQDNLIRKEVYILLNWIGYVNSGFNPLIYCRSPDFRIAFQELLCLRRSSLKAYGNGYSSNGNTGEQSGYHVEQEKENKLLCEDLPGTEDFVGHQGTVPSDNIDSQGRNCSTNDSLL
Sequence of UniProt Q13043 (whole entry, looked up): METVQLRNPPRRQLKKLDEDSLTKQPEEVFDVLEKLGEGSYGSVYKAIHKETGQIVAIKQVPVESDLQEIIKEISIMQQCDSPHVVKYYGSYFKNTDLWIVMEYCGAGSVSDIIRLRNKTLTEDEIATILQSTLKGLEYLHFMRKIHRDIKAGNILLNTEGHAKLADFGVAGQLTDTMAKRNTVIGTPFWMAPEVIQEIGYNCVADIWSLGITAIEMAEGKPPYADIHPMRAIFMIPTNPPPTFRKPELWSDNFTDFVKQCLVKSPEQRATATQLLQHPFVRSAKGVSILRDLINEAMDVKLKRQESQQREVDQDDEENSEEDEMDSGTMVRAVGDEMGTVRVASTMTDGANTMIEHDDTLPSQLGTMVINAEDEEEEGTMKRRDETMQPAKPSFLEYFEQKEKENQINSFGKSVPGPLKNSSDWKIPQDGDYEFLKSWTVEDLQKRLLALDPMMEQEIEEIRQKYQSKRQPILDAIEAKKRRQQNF
Sequence of UniProt P41146 (whole entry, unmodified, looked up): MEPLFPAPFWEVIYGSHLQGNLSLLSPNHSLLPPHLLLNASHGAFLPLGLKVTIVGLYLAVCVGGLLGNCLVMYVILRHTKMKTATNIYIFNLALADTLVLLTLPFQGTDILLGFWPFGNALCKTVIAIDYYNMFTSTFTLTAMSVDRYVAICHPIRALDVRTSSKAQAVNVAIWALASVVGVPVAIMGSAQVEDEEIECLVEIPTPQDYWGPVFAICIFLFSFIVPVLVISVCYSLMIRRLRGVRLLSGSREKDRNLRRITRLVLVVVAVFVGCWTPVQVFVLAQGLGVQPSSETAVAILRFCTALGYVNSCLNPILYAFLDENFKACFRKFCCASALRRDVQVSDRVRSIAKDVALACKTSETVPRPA
Sequence of UniProt Q9UKP6 (whole entry, looked up): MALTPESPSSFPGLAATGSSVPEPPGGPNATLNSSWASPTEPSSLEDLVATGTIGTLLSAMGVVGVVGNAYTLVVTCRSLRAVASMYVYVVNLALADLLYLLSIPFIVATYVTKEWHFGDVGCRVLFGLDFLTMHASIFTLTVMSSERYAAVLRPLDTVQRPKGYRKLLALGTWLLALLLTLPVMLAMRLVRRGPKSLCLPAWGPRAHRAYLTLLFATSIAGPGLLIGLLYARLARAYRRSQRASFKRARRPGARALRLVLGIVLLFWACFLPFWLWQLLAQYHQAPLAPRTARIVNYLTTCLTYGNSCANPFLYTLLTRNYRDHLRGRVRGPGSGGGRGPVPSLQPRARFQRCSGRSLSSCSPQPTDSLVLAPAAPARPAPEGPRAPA

`Cc1ccc(-c2nn(-c3ccccc3)cc2C=NOCc2ccc3nc(-c4ccccc4)c(Nc4ccc(C(=O)O)cc4)n3c2)o1` gave an inhibition of 58.9% (TDP1; enzyme activity, inhibitor; 100 µM, unpurified compound).
`CC(C)C[C@H](NC(=O)[C@@H](N)[C@@H](C)O)C(=O)N[C@@H](CCC(N)=O)C(=O)N1CCC[C@H]1C(=O)N1CCC[C@H]1C(=O)N[C@@H](C)C(=O)N[C@@H](CO)C(=O)N[C@@H](CO)C(=O)N[C@@H](CCCNC(=N)N)C(=O)N[C@@H](CCCNC(=N)N)C(=O)N[C@@H](CCCNC(=N)N)C(=O)N[C@@H](Cc1c[nH]cn1)C(=O)N[C@@H](Cc1ccccc1)C(=O)N[C@@H](Cc1c[nH]cn1)C(=O)N[C@@H](Cc1c[nH]cn1)C(=O)N[C@@H](C)C(=O)N[C@@H](CC(C)C)C(=O)N1CCC[C@H]1C(=O)N1CCC[C@H]1C(=O)N[C@@H](C)C(=O)N[C@@H](CCCNC(=N)N)C(=O)O` has an EC50 of 15.8 nM (C3a anaphylatoxin chemotactic receptor (C3ar1, Mus musculus, UniProt O09047); cAMP response, agonist, GloSensor).
The IC50 of `COc1ccc(NC(=O)Nc2cc(C(C)(C)C)on2)cc1OC` is reported as 81000 nM (Uncharacterized protein; enzyme activity, inhibitor, coupled colorimetric; together with: E. coli pyrophosphatase coupling).
`Cc1nn(-c2cccc(N)c2)c(=O)c2cnc(Nc3ccc(N4CCNCC4)cc3)nc12` has an IC50 of greater than 10000 nM (Serine/threonine-protein kinase 4 (STK4, Homo sapiens, UniProt Q13043); enzyme activity, inhibitor).
`O=C(NCCCN1CCC2(CC1)OCc1ccccc12)C1CCCN1Cc1ccccc1` (centres unmarked) has a Ki of 32 nM (Nociceptin receptor (OPRL1, Homo sapiens, UniProt P41146, Q107A)).
`Cc1ccc2c(c1)C(O)(CC(=O)c1ccc3c(c1)OCO3)C(=O)N2` (centres unmarked) has an IC50 of 224000 nM (Uncharacterized protein; inhibitor, coupled colorimetric; Trypanosoma brucei).
For `Cn1ccc2c(N3CCN(CCCCOc4ccc5c(c4)NC(=O)CC5)CC3)cccc21`, the Ki was 80 nM (Beta-2 adrenergic receptor (ADRB2, Homo sapiens, UniProt P07550); ligand displacement, radioligand).
The IC50 of `COc1ccc2c(c1OC)C(=O)N(c1ccc(Cl)c(Cl)c1)C2` is reported as greater than 100000 nM (Uncharacterized protein; inhibitor, coupled colorimetric; Trypanosoma brucei).
For `Cn1c(=O)n(C2CCC(=O)NC2=O)c2ccc(C3CCN(CC(=O)Nc4cccc(CS(=O)(=O)N5CC[C@H](Nc6cccc(-c7sc(C(=O)O)c(OCC(=O)O)c7Cl)c6)CC5(C)C)c4)CC3)cc21` (some centres unmarked), the DC50 was 5 nM (Tyrosine-protein phosphatase non-receptor type 2 (Ptpn2, Mus musculus, UniProt Q06180); degrader, Western blot; B16-F10; 24 h).
For `Cc1c(C=NOCc2ccc(-c3nc4cc(-c5ccccc5)ccn4c3Nc3ccc(C(=O)O)cc3)cc2)c2ccccc2n1CC(=O)O` (mixture of isomers), the inhibition was 79.3% (TDP1; enzyme activity, inhibitor; 100 µM, unpurified compound).
`CC(C)[C@H](NC(=O)[C@@H]1CSSC(C)(C)[C@H](NC(=O)[C@@H](N)CC(=O)O)C(=O)N[C@@H](Cc2ccccc2)C(=O)N[C@H](Cc2c[nH]c3ccccc23)C(=O)N[C@@H](CCCN)C(=O)N[C@@H](Cc2ccc(O)cc2)C(=O)N1)C(=O)O` gave an EC50 of 60.3 nM (Urotensin-2 receptor (UTS2R, Homo sapiens, UniProt Q9UKP6); GoB activation, agonist, BRET2 biosensor; HEK293).

Some of these lines once more:
`CC(C)[C@H](NC(=O)[C@@H]1CSSC(C)(C)[C@H](NC(=O)[C@@H](N)CC(=O)O)C(=O)N[C@@H](Cc2ccccc2)C(=O)N[C@H](Cc2c[nH]c3ccccc23)C(=O)N[C@@H](CCCN)C(=O)N[C@@H](Cc2ccc(O)cc2)C(=O)N1)C(=O)O` gave an EC50 of 60.3 nM (Urotensin-2 receptor (UTS2R, Homo sapiens, UniProt Q9UKP6); GoB activation, agonist, BRET2 biosensor; HEK293).
